Experimental data pooled from the literature.
Numbers after ± are the reported error.

CCc1cccc(CC)c1N(COC)C(=O)CCl
remaining amount (LC-MS/MS; herbicide solution; 2 h, 4 °C, together with: 365 nm UV exposure): 4.83 ± 0.15%

CC[C@H](C)[C@H](NC(=O)[C@@H](N)CCCNC(=N)N)C(=O)N[C@H](C(=O)N1CCC[C@H]1C(=O)N[C@@H](C)C(N)=O)C(C)C
Cmax (human, plasma; intravenous, 3 mg/kg, single dose, healthy volunteers): 14400 ng/mL

CN[C@@](C)(C[18F])C(=O)O
tissue uptake (SCID mouse U87 xenograft, heart; 30 min, post injection): 4.5 ± 1.7 %ID/g

COc1ccc(/C=C\c2cc(OC)c(OC)c(OC)c2)cc1O
LC50 (mortality; zebrafish embryos, water with 0.1% DMSO; bath, 96 h): 5 nM

CCCCCOc1ccc(-c2cc(-c3ccc(C(=O)N[C@H]4C[C@@H](O)[C@@H](O)NC(=O)[C@@H]5[C@@H](O)[C@@H](C)CN5C(=O)[C@H]([C@H](O)CC(N)=O)NC(=O)[C@H]([C@H](O)[C@@H](O)c5ccc(O)c(OS(=O)(=O)O)c5)NC(=O)[C@@H]5C[C@@H](O)CN5C(=O)[C@H]([C@@H](C)O)NC4=O)cc3)no2)cc1
Cmax (young infants at least 1000 g, plasma; intravenous infusion, 7 mg/kg/day, day 4, median, 1 h infusion, repeat dosing): 23300 ng/mL

CSCC[C@H](NC(=O)[C@H](CC(=O)O)NC(=O)CNC(=O)[C@H](CCCNC(=N)N)NC(=O)[C@H](Cc1ccc(O)cc1)NC(=O)[C@H](CC(=O)O)NC(=O)[C@H](CCCNC(=N)N)NC(=O)[C@H](Cc1c[nH]c2ccccc12)NC(=O)[C@@H](NC(=O)[C@H](Cc1c[nH]c2ccccc12)NC(=O)[C@@H](N)CCCNC(=N)N)C(C)C)C(=O)NCC(=O)N[C@@H](Cc1ccccc1)C(=O)N[C@@H](CC(=O)O)C(=O)N[C@@H](Cc1c[nH]c2ccccc12)C(=O)N[C@H](C(=O)N[C@@H](Cc1c[nH]c2ccccc12)C(=O)N[C@@H](CCC(=O)O)C(=O)O)C(C)C
Tm (circular dichroism; phosphate buffer; pH 6.5): 46.7 ± 0.1 °C

CCCCCOc1ccc(-c2cc(-c3ccc(C(=O)N[C@H]4C[C@@H](O)[C@@H](O)NC(=O)[C@@H]5[C@@H](O)[C@@H](C)CN5C(=O)[C@H]([C@H](O)CC(N)=O)NC(=O)[C@H]([C@H](O)[C@@H](O)c5ccc(O)c(OS(=O)(=O)O)c5)NC(=O)[C@@H]5C[C@@H](O)CN5C(=O)[C@H]([C@@H](C)O)NC4=O)cc3)no2)cc1
clearance at steady state (human children aged 6-11 years, plasma; intravenous, 4.5 mg/kg once daily, day 7, median): 0.283 mL/min/kg

O=c1[nH]c(Cc2ccccn2)nc2c1cnn2C1CCOCC1
half-life (male human, plasma; oral, 5 mg, single dose): 1.18 h

[123I]c1cncc(OC[C@@H]2CCN2)c1
tissue/plasma ratio (SPECT; human, temporal lobe; intravenous bolus plus infusion, 7.6 mCi; baseline: plasma): 20.1

COc1ccc(C[C@@H]2NC(=O)[C@H]([C@@H](C)O)NC(=O)[C@@H]3[C@@H]4CCN3C(=O)[C@@H]3Cc5cn(c6ccc(F)cc56)CCCCCCN(Cc5ccc(cc5)CCNC(=O)[C@]5(C)CCCN5C2=O)C(=O)CCC(=O)N[C@@H](C)C(=O)N[C@H](CNC(=O)CCCCC[N+](C)(C)C)C(=O)N[C@@H](Cc2cccc(c2)CNC(=O)CO4)C(=O)N3)cc1
plasma concentration (fasted healthy men, plasma; oral, 200 mg single dose, 24 h, with 1800 mg Labrasol, median): 9.91 nM

Excerpt of the above:
CCc1cccc(CC)c1N(COC)C(=O)CCl
remaining amount (LC-MS/MS; herbicide solution; 2 h, 4 °C, together with: 365 nm UV exposure): 4.83 ± 0.15%
